# Measured values gathered from unrelated publications.
# Each numbered part is a random draw from the data of one study; scales do not carry over between parts. Positions count from the first letter of the parent shown.

# Sample 1 — technique: Spec-seq; molecule type: double-stranded DNA, one strand shown; sample: in vitro; tested at: not given; notes: whole probe, mean of replicates; baseline: not given; reading: lower = stronger binding; all sequences stand within: GAGTCGTCTCGTCAGCAC … CCGTAGAGCACTCAGGTC
# Target: POU, POU domain (Salpingoeca helianthica)
# Construct (chain): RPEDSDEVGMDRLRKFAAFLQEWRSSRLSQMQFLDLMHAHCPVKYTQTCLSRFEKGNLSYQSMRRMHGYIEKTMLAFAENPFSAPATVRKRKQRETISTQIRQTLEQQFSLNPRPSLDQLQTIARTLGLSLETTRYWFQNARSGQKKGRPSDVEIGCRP
Sequence,relative binding energy [ln ratio]
AGACTAAT,0.77
ATGCCCTT,1.23
ATGCGCCC,1.24
ATTACAAT,0.382
ATTGGTAT,0.926
ATGCGTTC,1.07
GATCTAAT,0.746
ATGCGTAA,0.747

# Sample 2 — target: CEP164, C-terminal peptide (human); technique: DHFR complementation, deep sequencing; sample: yeast; baseline: wild type; reading: higher = weaker binding
# Notes: single substitutions, model-inferred values
# Starting sequence: PDZK1, PDZ domain 2 (human); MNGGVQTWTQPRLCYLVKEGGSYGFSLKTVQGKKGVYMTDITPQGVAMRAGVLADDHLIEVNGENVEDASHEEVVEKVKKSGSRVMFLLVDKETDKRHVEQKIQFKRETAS; partner HNRVKVYRF
Variant,binding free energy change [kcal/mol]
M1S,-0.0913
E60H,0.486
D68Y,0.105
G51S,1.04
S111T,-0.0688
I59D,0.653
H98D,0.0169
E72M,0.488

# Other studies, line by line
Molecule,target or system,assay,test system,conditions,scale,endpoint,value
"PhoQ, residues 284 288 289 292 302 303 QWQEDG","PhoP, residues 12 14 15 18 19 GHCSL (Escherichia coli, UniProt P23836)","Sort-seq, measured: YFP reporter",E. coli,"PhoQ-PhoP variant library, with: 10 µM Mg2+","baseline: high Mg2+ state, higher = stronger signaling",fold induction,10.2
Cc1nc(C)c(COCc2ccccc2)c(-c2ccc(Cl)cc2)c1CO,,,"mouse, microsomes or S9","2 µM, 0.5 h",,remaining compound,0.173%

# For quick reference, copied from above (sample 1):
Sequence,relative binding energy [ln ratio]
ATGCGTTC,1.07
ATGCCCTT,1.23
ATGCGTAA,0.747
